# Results of several laboratories.
# Compare with care: the assays were run in different laboratories. Values joined by “and” are separate records of one study, mostly repeats; a detail may differ. ± marks the error that the study gave.
Substance,assay,system,setting,how to read,measurement,value
CCCC[C@@H]1NC(=O)[C@@H](NC(=O)[C@H](CCC(=O)O)NC(=O)CNC(=O)CN2CCN(CC(=O)O)CCN(CC(=O)O)CCN(CC(=O)O)CC2)CCCCNC(=O)C[C@@H](C(N)=O)NC(=O)[C@H](C(C)C)NC(=O)[C@@H]2CCCN2C(=O)[C@H](CCCNC(=N)N)NC(=O)CNC(=O)[C@H](Cc2c[nH]c3ccccc23)NC(=O)[C@H](CCCNC(=N)N)NC(=O)[C@@H](Cc2ccccc2)NC(=O)[C@H](Cc2c[nH]cn2)NC(=O)[C@H](CCC(=O)O)NC1=O [indium-111 labelled],,"normal C57 mice, skin","intravenous, 0.037 MBq, 2 h",,tissue uptake,0.25 ± 0.17 %ID/g
C[C@]12CC[C@@H]3c4ccc(O)cc4CC[C@H]3[C@@H]1C[C@@H](O)[C@@H]2O,GC-MS,"breast cancer women on NSAI, serum","vaginal, 0.03 mg daily, 3 h, day 28",,minimum serum concentration,0 ng/mL
COc1cc2nccc(Oc3ccc(NC(=O)NC4CC4)c(Cl)c3)c2cc1C(N)=O,,healthy volunteers,"oral, 5 mg single dose, added: ketoconazole 400 mg/day",reference: placebo,systemic exposure,15 to 19 % increase
CC[C@H](C)CCCCC(=O)N[C@@H](CCN)C(=O)N[C@H](C(=O)N[C@@H](CCN)C(=O)N[C@H]1CCNC(=O)[C@H]([C@@H](C)O)NC(=O)[C@H](CCN)NC(=O)[C@H](CCN)NC(=O)[C@H](CC(C)C)NC(=O)[C@@H](Cc2ccccc2)NC(=O)[C@H](CCN)NC1=O)[C@@H](C)O,UPLC-MS/MS,"intensive care patients Overall, plasma","iv, dose not given, 6 h post-dose, steady state, polymyxin B dosing",,mid-interval concentration,3000 ± 1100 ng/mL
C=CC(N)CCC(=O)O (stereo not shown),,"male Sprague-Dawley rat, plasma","oral, 10 mg/kg, formulation 10, added: Sar 200 mg/kg",,Tmax (median),40.2 min
NC(=O)N1c2ccccc2C=Cc2ccccc21,shake-flask,soybean oil,37 °C,,thermodynamic solubility,1.42 ± 0.16 mg/g
CCCC[C@H](NC(C)=O)C(=O)N[C@H]1CCC(=O)NC[C@@H](C(=O)N[C@@H](Cc2c[nH]c3ccccc23)C(N)=O)NC(=O)[C@H](CCCNC(=N)N)NC(=O)[C@@H](Cc2ccccc2)NC(=O)[C@H](Cc2c[nH]cn2)NC1=O,,"female rat, plasma","subcutaneous, 5 mg/kg/day, multiple doses, once daily",,CL/F,19.4 mL/min/kg
CC1(C)Oc2cc3oc(=O)ccc3cc2C[C@@H]1O,,"CD-1 mouse, male, spleen","oral gavage, 80 mg/kg daily, 4 weeks",,organ weight,0.09 ± 0.01 g
CC[C@@H]1C(=O)N(C)c2cnc(Nc3ccc(C(=O)N[C@H]4CC[C@H](N5CCN(CC6CC6)CC5)CC4)cc3OC)nc2N1C(C)C,,"human, plasma","intravenous infusion, 250 mg over 2 h, first infusion",,Cmax geometric mean,540 ng/mL
COc1cc(N)c(Cl)cc1C(=O)NC1CCN(CCCOc2ccc(F)cc2)CC1OC (stereo not shown),,"male Hartley guinea pig, anaesthetized","intravenous infusion, 1 mg/kg, 10 min infusion",reference: baseline,QTc change,18.2 ± 1.9%
O=C1N=C(N2CCOCC2)CN1c1ccc(Cl)cc1,,"beagle dog, both sexes, plasma","oral, 30 mg/kg, tablets, fasted, day 5",,Vz/F,0.789 L/kg
N[C@@H](CC(=O)N1CCn2c(nnc2C(F)(F)F)C1)Cc1cc(F)c(F)cc1F,,"healthy Korean subjects, plasma","oral, 100 mg single dose, ABCB1 G2677T/A GT",,AUC(0-2 h),478 ± 213 ng·h/mL
CCCOc1ccc([C@H]2CNC(=O)N2c2ccc3[nH]cnc3c2)cc1,,"human, plasma","oral, 1800 mg, single dose, fasted, healthy volunteers",,AUC(0-inf),32200 ng·h/mL
O=C(O)c1cc(-c2ccc(F)cc2F)ccc1O,shake-flask,polysorbate 80,37 °C,,thermodynamic solubility,120 ± 12.4 mg/g
CCCCN1CCC(N(Cc2ccccc2)C(=O)Nc2cc(F)cc(C(F)(F)F)c2)CC1,,"CD-1 female mouse, liver microsomes",0.8 µM,,intrinsic clearance,22 mL/min/kg
CC(C)=CCC[C@](C)(O[C@@H]1O[C@H](CO[C@@H]2O[C@H](CO)[C@@H](O)[C@H](O)[C@H]2O)[C@@H](O)[C@H](O)[C@H]1O)[C@H]1CC[C@]2(C)[C@@H]1[C@H](O)C[C@@H]1[C@@]3(C)CC[C@H](O[C@@H]4O[C@H](CO)[C@@H](O)[C@H](O)[C@H]4O[C@@H]4O[C@H](CO)[C@@H](O)[C@H](O)[C@H]4O)C(C)(C)[C@@H]3CC[C@]12C,,"Sprague Dawley rat, male, small intestine site 4 contents","oral, 0.3 g/kg TU-100, 2 h, no β-glucuronidase treatment",reference: ingested amount,recovery,42.3%
N[C@@H](CC(=O)N1CCn2c(nnc2C(F)(F)F)C1)Cc1cc(F)c(F)cc1F,,"adult UCB transplant recipients, plasma","oral, 600 mg four times, observed median",,log AUC(0-24h),9.23 ng·h/mL
CC[C@H](C)[C@@H]1NC(=O)[C@H](CCCNC(=N)N)NC(=O)[C@H](CC(=O)O)NC(=O)[C@H](CC(C)C)NC(=O)[C@H](CCCCN)NC(=O)[C@H](CC(C)C)NC(=O)CNC(=O)[C@H](Cc2ccccc2)NC(=O)[C@@H](NC(=O)CNC(=O)[C@H](CCCCN)NC(=O)[C@H](CO)NC(=O)[C@H](CC(C)C)NC(=O)CNC(=O)[C@H](CCCCN)NC(=O)[C@H](CCCCN)NC(=O)[C@H](CC(N)=O)NC(=O)[C@H](C)NC(=O)CNC(=O)[C@H](CCCCN)NC(=O)[C@H](Cc2ccc(O)cc2)NC(=O)[C@H](CCCCN)NC(=O)[C@H](CCCNC(=N)N)NC(=O)[C@H](C)NC(=O)[C@H](CC(N)=O)NC(=O)[C@@H]2CCCN2C(=O)[C@H](Cc2c[nH]cn2)NC(=O)[C@H](CCC(=O)O)NC(=O)[C@H](CCC(N)=O)NC(=O)CNC(=O)[C@@H]2CCCN2)CSSC[C@@H](C(=O)O)NC(=O)CNC(=O)[C@H](CC(C)C)NC(=O)CNC(=O)[C@H](CO)NC(=O)[C@H](CCSC)NC(=O)[C@H](CO)NC(=O)CNC1=O,bridging ECLA,"human patients with achondroplasia, serum","subcutaneous, 15 µg/kg daily",,anti-drug antibody incidence,42%
CC(C)(C)NC(=O)[C@@H]1C[C@@H]2CCCC[C@@H]2CN1C[C@@H](O)[C@H](Cc1ccccc1)NC(=O)[C@H](CC(N)=O)NC(=O)c1ccc2ccccc2n1,equilibrium dialysis,"cellulose membrane, cell-free","pH 7.4, no Pluronic P85",,effective permeability,47 ± 11 ×10⁻⁶ cm/s
O=C(O)[C@H](c1ccccc1Cl)N1CCc2sccc2C1,HPLC-MS/MS,feline citrate plasma,"6 h, 4 °C, storage stability",,deviation from nominal,8%
Cc1nc2cccc(OCC(C)(C)C(=O)NC(C)C)c2c(N)c1C(=O)O,,"Sprague-Dawley rat, male, plasma","intravenous, 1.0 mg/kg, day 1",,AUC(0-last),331 ± 58 ng·h/mL
COc1cccc(CN)c1O,,"male C57BL/6 mouse, liver","intraperitoneal, 200 mg/kg, single dose",,half-life,54 min
COc1cc(OC)c(/C=C/S(=O)(=O)Cc2ccc(OC)c(NCC(=O)O)c2)c(OC)c1,,"cancer patients, phase I, plasma","oral, 560 mg twice daily, day 1 cycle 1",,AUC(0-inf),9320 ± 6920 ng·h/mL
COc1cc(CO)c(-c2ccc3c(c2O)[C@@H](C)N[C@H](C)C3)c2cccc(O)c12,metabolic stability,"male CD-1 mouse, liver microsomes",1 µM,,microsomal CLint,> 250 µL/min/mg
C[C@](N)(Cc1ccc(O)c(O)c1)C(=O)O,,supercritical carbon dioxide,"5 h, 343 K, 15 MPa, density 507.5 kg/m3",,solubility,49.7 µg/mL
C[N+]1(CC(=O)OC2CCCCCCCCCCC2)CCCCCC1,metabolic stability,"male CD-1 mouse, liver microsomes","1 µM, pH 7.4",,microsomal CLint,790 µL/min/mg
C#C[C@]1(O)CC[C@H]2[C@@H]3CCc4cc(O)ccc4[C@H]3CC[C@@]21C,shake-flask,Captex 355,37 °C,,thermodynamic solubility,44 ± 3.13 mg/g
Cc1nc(-c2ccc(OCC(C)C)c(C#N)c2)sc1C(=O)O,,"pediatric patients under sample A kg, plasma","oral, 20 mg once daily, fed, PopPK post hoc",,half-life at steady state,572 ± 34.8 min
O[C@H](C[C@H]1c2c(F)cccc2-c2cncn21)[C@H]1CC[C@H](O)CC1,,"human, faeces","oral, 200 mg, [14C] labelled",reference: dose,radioactivity recovered in faeces,7.4% and 7.44%
CC(C)[C@H](NC(=O)[C@@H]1CCCN1C(=O)[C@H](CCCNC(=N)N)NC(=O)[C@H](CS)NC(=O)[C@H](Cc1c[nH]c2ccccc12)NC(=O)[C@H](CCCNC(=N)N)NC(=O)[C@@H](Cc1ccccc1)NC(=O)[C@H](Cc1c[nH]cn1)NC(=O)[C@H](CCC(=O)O)NC(=O)[C@H](CS)NC(=O)[C@H](CS)NC(=O)[C@H](CCCCN)NC(=O)[C@@H]1CC(=O)N[C@@H](CCCNC(=N)N)C(=O)N[C@@H]([C@@H](C)O)C(=O)N[C@@H](CC(=O)O)C(=O)N[C@H](Cc2ccc(O)cc2)C(=O)N1)C(N)=O [technetium-99m labelled],,"C57 mouse, B16/F1 melanoma, kidneys","dose not given, 2 h, added: L-lysine 15 mg co-injected",,tissue uptake,60.7 ± 12.1 %ID/g
CC(C)(C)NC(=O)[C@@H]1C[C@@H]2CCCC[C@@H]2CN1C[C@@H](O)[C@H](Cc1ccccc1)NC(=O)[C@H](CC(N)=O)NC(=O)c1ccc2ccccc2n1,shake-flask,PEG400,37 °C,,thermodynamic solubility,≥ 300 mg/g
C[C@@H]1[C@H](c2c(F)ccc(F)c2F)C[C@H](NC(=O)c2cnc3c(c2)C[C@@]2(C3)C(=O)Nc3ncccc32)C(=O)N1CC(F)(F)F,LC-MS/MS,"human, male, plasma","oral, 50 mg, single dose, 14C-labelled, AUC based",,circulating parent share of plasma radioactivity,~75%
des-acyl ghrelin (human),,"wild-type mice, pons and medulla","intravenous, dose not given, 10 min, vascular space corrected",,tissue/serum ratio,14.8 µL/g
O=C(C1CCCCC1)N1CC(=O)N2CCc3ccccc3C2C1 (stereo not shown),shake-flask,Captex 355,37 °C,,thermodynamic solubility,13 ± 0.48 mg/g
COc1cc(-c2oc3cc(O)cc(O)c3c(=O)c2O)ccc1O,mass spectrometry,Caco-2,"40 µM, 6 h",,Papp A→B,9.32 ×10⁻⁶ cm/s
CCc1cn([C@@H]2O[C@H](CO)[C@@H](O)[C@H]2O)c2ncnc(C)c12,metabolic stability,"mouse, liver microsomes",1 h,,compound remaining,106%
CC(=O)O[C@@]12CO[C@@H]1C[C@H](O)[C@@]1(C)C(=O)[C@H](O)C3=C(C)[C@@H](OC(=O)[C@H](O)[C@@H](NC(=O)OC(C)(C)C)c4ccccc4)C[C@@](O)([C@@H](OC(=O)c4ccccc4)[C@H]21)C3(C)C,HPLC-MS/MS,rat liver homogenate,storage and freeze-thaw,,stability,stable

# A few entries again:
Substance,assay,system,setting,how to read,measurement,value
O=C1N=C(N2CCOCC2)CN1c1ccc(Cl)cc1,,"beagle dog, both sexes, plasma","oral, 30 mg/kg, tablets, fasted, day 5",,Vz/F,0.789 L/kg
N[C@@H](CC(=O)N1CCn2c(nnc2C(F)(F)F)C1)Cc1cc(F)c(F)cc1F,,"healthy Korean subjects, plasma","oral, 100 mg single dose, ABCB1 G2677T/A GT",,AUC(0-2 h),478 ± 213 ng·h/mL
